Measurements from different studies.
Values joined by “and” are separate records of one study, mostly repeats; a detail may differ. ± gives the spread as reported.

Compound	test	test system	setting	scale	measurement	value
O=[N+]([O-])c1cnc2ccc(Cl)cc2c1O	haemolysis	sheep erythrocytes	1 h, pH 7.5	–	HC50	> 128 µg/mL
O=C(O)CCC(=O)O.[2H]C([2H])([2H])Oc1cc(C)c2[nH]ccc2c1CN1CC[C@@H](C2CC2)C[C@H]1c1ccc(C(=O)O)cc1	multiple ascending dose	healthy Chinese subjects	50 mg twice daily	–	subjects with TEAE Constipation	0%
NC[C@@]1(CC(=O)O)[C@@H]2CC[C@H]3C[C@@H]2[C@@H]1C3	–	human, moderate renal impairment, plasma	dose not given, geometric mean	–	unbound AUC(0-inf)	3.51 µg·h/mL
Cc1noc(C)c1Cn1cc(N2C(=O)CN(Cc3cccc(O)c3)C2=O)cn1	–	pooled human liver microsomes	1 µM, 30 min, pH 7.4	–	remaining parent	90 % peak area
CCc1cc(C(=O)NC)c2nccc(N3CCc4c(cc(Cn5ccnc5)cc4-c4cn(C)nc4C(F)(F)F)C3=O)c2c1	measured: Eos	Sprague Dawley rat	oral, 100 mg/kg once daily, 7 days	relative to: vehicle	change in clinical chemistry or haematology parameter	-44.1%
NC1(C(=O)N[C@@H](CCO)c2ccc(Cl)cc2)CCN(c2nc[nH]c3nccc2-3)CC1	–	metastatic CRPC patients	320 mg b.i.d., grade 3 to 4, treatment-related, with: enzalutamide 160 mg daily	–	incidence of SIRS	0%
CC(C)C[C@H](NC(=O)[C@H](CC(C)C)NC(=O)[C@H](Cc1c[nH]c2ccccc12)NC(=O)[C@H](CCC(=O)O)NC(=O)[C@@H](NC(=O)[C@H](Cc1ccccc1)NC(=O)[C@H](CCC(=O)O)NC(=O)[C@H](CCCCNC(=O)COCCOCCNC(=O)COCCOCCNC(=O)CC[C@H](NC(=O)CCCCCCCCCCCCCCCCCCC(=O)O)C(=O)O)NC(=O)[C@H](C)NC(=O)[C@H](CCCCN)NC(=O)[C@H](CCCCN)NC(=O)[C@H](CCC(=O)O)NC(=O)[C@H](CC(=O)O)NC(=O)[C@H](CC(C)C)NC(=O)[C@H](Cc1ccc(O)cc1)NC(=O)[C@H](CCCCN)NC(=O)[C@H](CO)NC(=O)[C@H](Cc1ccc(O)cc1)NC(=O)[C@H](CC(=O)O)NC(=O)[C@H](CO)NC(=O)[C@@H](NC(=O)[C@H](Cc1ccccc1)NC(=O)[C@@H](NC(=O)CNC(=O)[C@H](CCC(N)=O)NC(=O)C(C)(C)NC(=O)[C@@H](N)Cc1c[nH]cn1)[C@@H](C)O)[C@@H](C)O)C(C)C)C(=O)N[C@@H](CCC(=O)O)C(=O)NCC(=O)NCC(=O)N1CCC[C@H]1C(=O)N[C@@H](CO)C(=O)N[C@@H](CO)C(=O)NCC(N)=O	–	human, plasma	subcutaneous, 16 mg once weekly, week 20, geometric mean	–	AUC(0-tlast)	1550 µg·h/mL
COc1c(OCCCN2CCOCC2)ccc2c1N=C(NC(=O)c1cnc(N)nc1)N1CCN=C21	–	relapsed iNHL patients	intravenous, 60 mg	–	serious adverse events	44.7%
C[C@H](CCC(=O)NCCS(=O)(=O)O)[C@H]1CC[C@H]2[C@@H]3[C@H](O)C[C@@H]4C[C@H](O)CC[C@]4(C)[C@H]3C[C@H](O)[C@]12C	–	human, plasma	endogenous baseline diurnal	–	daily mean concentration	16.4 ± 1.4 nM
FC(F)(F)c1ccc(CNc2ccc(Cc3c[nH]c4ncc(Cl)cc34)cn2)cn1	measured: Dyspepsia	patients with advanced solid tumours, all cohorts	oral, 1000 mg/day, any grade	–	treatment-related adverse events	4%
CCOc1c([C@H](C)n2nc(C)c3c(N)ncnc32)cc(Cl)c(F)c1[C@@H]1CNC(=O)C1	measured: ΔQTcF > 60 ms	previously treated B-cell malignancy	oral, dose not given, all doses, overall population	–	share of ECG observations	0.6%
O=C(COc1ccc(Cl)cc1)NC12CC(c3nnc([C@H]4C[C@@H](OC(F)(F)F)C4)o3)(C1)C2	–	human both sexes	oral, 100 mg once daily, 14 days	–	participants maximum mild TEAE	100%
Cn1cc([C@H]2C[C@H]3CSC(N)=N[C@@]3(c3ccc(F)cc3F)CO2)cn1	–	male 129/SVE mouse, brain	subcutaneous, 50 mg/kg, 3 h	–	brain concentration	5.94 µM
CC(C)NCCCC[C@@H]1NC(=O)[C@H](Cc2ccc(O)cc2)NC(=O)[C@H](Cc2ccccc2)NC(=O)CC[C@H](C(=O)N[C@@H](CCCCNC(C)C)C(=O)N[C@@H](CCCCNC(=O)[C@H](CCC(=O)O)NC(=O)[C@H](CCC(=O)O)NC(=O)[C@H](CCC(=O)O)NC(=O)CN2CCN(CC(=O)O)CCN(CC(=O)O)CCN(CC(=O)O)CC2)C(N)=O)NC(=O)CNC(=O)[C@H](Cc2ccc3ccccc3c2)NC(=O)[C@@H](CCCNC(=N)N)NC1=O [gallium-68 labelled]	–	mouse with Daudi xenograft, liver	intravenous, 1 h	–	tissue uptake	0.57 %ID/g
CCCC1CCC(c2ccc(-c3ccc(CC)cc3)cc2)CC1 (stereo not shown)	measured: compound	human pregnant women, male fetuses, maternal serum	dose not given, paired maternal-cord samples, mean	–	concentration	0.00045 µg/mL
NC(=O)N1c2ccccc2CC(O)c2ccccc21 (stereo not shown)	–	human	popPK model	–	Kbt bootstrap median	0.0374 h⁻¹
CC(=O)N(C)C1CCN(c2cc(F)cc(NC(=O)c3cc4c(F)ccc(C)c4[nH]3)c2)C1 (stereo not shown)	–	CD1 mouse	oral, 50 mg/kg	–	terminal half-life	1.3 h
CC(C)[C@H](N)C(=O)NCCCS(=O)(=O)O	–	human both sexes, plasma	oral, 256.5 mg once daily, day 1, fed capsule	–	AUC(0-12)	10.4 µg·h/mL
N#Cc1ccc2c(c1)[C@H]1CCCN(C(=O)c3ccc4[nH]cnc4c3)[C@H]1C2	–	human females	360 mg, day 15	–	total testosterone level	0.9 nmol/L
N#Cc1ccc2c(c1)[C@H]1CCCN(C(=O)c3ccc4[nH]cnc4c3)[C@H]1C2	–	human, plasma	20 mg once daily, day 28	–	pre-dose plasma concentration	479 nmol/L
C=CC(=O)Nc1cc(Nc2nccc(-c3cn(C)c4ccccc34)n2)c(OC)cc1N(C)CCN(C)C	storage stability	human dried blood spots	72 h, -80 °C, low QC level	–	recovery	94.4%
Cc1ccc([C@@H]2O[C@H](CO)[C@@H](O)[C@H](O)[C@H]2O)cc1Cc1ccc(-c2ccc(F)cc2)s1	–	Japanese type 2 diabetes patients	25 mg, day 16, 24 h urine collection	relative to: baseline	urinary potassium excretion change	-3.44 mEq
CNC(=O)c1ccc(NS(=O)(=O)c2cc(Cl)cc(Cl)c2O)c(Cl)c1	colloidal aggregate formation, dynamic light scattering	50 mM potassium phosphate buffer	200 µM, pH 7.0, 1% DMSO	higher = more aggregation	DLS scattered light intensity	579000 counts/s
COc1ccc([C@@H](O)c2cc(-c3ncnc4cc(N5CCOCC5)ccc34)c(F)cc2Cl)nn1	–	locally advanced rectal cancer patients	50 mg, with: capecitabine and radiotherapy	–	drug-related gastrointestinal AE	100%
COc1ccc2cc(CNC(=O)C3(C(=O)O)CCC3)ccc2c1	colloidal aggregate formation, dynamic light scattering	50 mM potassium phosphate buffer	200 µM, pH 7.0, 1% DMSO	higher = more aggregation	DLS scattered light intensity	1.56e+07 counts/s
CCCCOC(=O)N1CCN(C(=O)[C@H](CP(=O)(O)O)NC(=O)c2cc(N3CC[C@H](OC)C3)nc(-c3ccccc3)n2)CC1	measured: urate	human, serum	16 mg, 24 h post-dose	–	change from baseline	-8.1 ± 28.3 µmol/L
Cc1cnc(N2CC3(CCOCC3)C2)c(C(=O)Nc2ccc(C(=O)N3CCc4cc(C(=O)Nc5c(C)cccc5F)sc4-c4ccccc43)cc2)c1	–	human, nasal epithelial lining fluid	inhaled, 5 mg twice daily, 96 h	–	concentration	13.1 µg/mL
O=C(Nc1nc2cccc(-c3ccc(CN4CCS(=O)(=O)CC4)cc3)n2n1)C1CC1	measured: paraesthesia	human rheumatoid arthritis patients	oral, 150 mg once daily, 4 weeks, regardless of relatedness	–	treatment-emergent adverse events	0%

Compound	test	test system	setting	scale	measurement	value
O=c1[nH]c(=O)n([C@@H]2O[C@H](CO)[C@@H](O)[C@@H]2F)cc1CCCCC[18F]	–	tumour-bearing nude mice, blood	dose not given, 2 min	–	blood activity	4.18 ± 0.17 %ID/g
CCN1/C(=C/C(C)=O)Sc2ccc(F)cc21	–	cynomolgus monkey	oral, 30 mg/kg, 24 h post-dose	relative to: pre-dose	heart rate change	90.9 ± 13.4%
COc1ccnc(C(=O)NC(CO)C(=O)O)c1O (racemic)	aerobic dark soil incubation	clay soil	20 °C, persistence endpoint	–	DT50	1.8 days
CCO[C@H]1CCN(Cc2c(OC)cc(C)c3[nH]ccc23)[C@H](c2ccc(C(=O)O)cc2)C1	–	human healthy controls, plasma	oral, 200 mg single dose, median	–	unbound AUClast	3.59 µg·h/mL
CC#CC(=O)N1CC[C@@H](n2c(=O)n(-c3ccc(Oc4ccccc4)cc3)c3c(N)ncnc32)C1	–	human, fasting, plasma	oral, 480 mg once daily, cycle 1 day 28	–	Tmax, median	3.61 h
Cc1nc(-c2ccc(OCC(C)C)c(C#N)c2)sc1C(=O)O	–	healthy Chinese subjects	oral, 40 mg, fed, single dose	–	subjects with AEs leading to withdrawal	0%
O=C(c1cccnc1-c1ccncc1)N1CCC(O)(Cc2ccccc2)CC1	–	healthy Japanese adults, plasma	oral, 100 mg twice daily, day 1	–	CL/F	452 L/h
Cc1nc(-c2ccc(OCC(C)C)c(C#N)c2)sc1C(=O)O	–	human, plasma	oral, 20 mg, with: verinurad 2.5 mg	relative to: test over reference	geometric mean ratio Cmax	103
CC(C)(C(=O)N1CCOc2c(C#N)cncc2C1)C(F)F	measured: nervous system disorders	human	oral, 10 mg once daily, 14 days, multiple ascending dose	–	subjects with adverse event	25%
CO[C@H]1C[C@@H]2CC[C@@H](C)[C@@](O)(O2)C(=O)C(=O)N2CCCC[C@H]2C(=O)O[C@H]([C@H](C)C[C@@H]2CC[C@@H](O)[C@H](OC)C2)CC(=O)[C@H](C)/C=C(\C)[C@@H](O)[C@@H](OC)C(=O)[C@H](C)C[C@H](C)/C=C/C=C/C=C/1C	–	healthy adult horses	oral, 0.06 mg/kg, 8 h	–	heart rate	35.5 ± 3.1 beats/min
CCc1c(-c2ccccc2)c(-c2ccccc2)nn1-c1ccccc1-c1cccc(OCC(=O)O)c1	–	Sprague-Dawley rat	intravenous	–	terminal half-life	2.09 h and 1.77 h and 1.46 h
C[C@@H](c1ncncc1F)[C@](O)(Cn1cncn1)c1ccc(F)cc1F	measured: Hallucinations	human	oral, 200 mg	–	drug-related TEAE incidence	0%
Fc1ccc([C@@H]2CCNC[C@H]2COc2ccc3c(c2)OCO3)cc1	–	human, CYP2D6 poor metabolizers, plasma	oral, 20 mg, steady state	–	peak-trough fluctuation	39%
O=C1NCCc2nc(OCc3cccc(F)c3)ccc21	measured: Ptosis	Sprague-Dawley rat male	oral, 100 mg/kg, 0 min	relative to: baseline, direction not given	Irwin test score	0
c1ccc(-c2nc(N3CCC(c4ccccn4)C3)c3ccccc3n2)nc1 (stereo not shown)	–	female Balb/c mice, blood	intravenous, 2 mg/kg, 0.25 h, mean, with: 1-aminobenzotriazole co-dosed	–	blood concentration	2.28 µg/mL
Cc1cc(Nc2ncnc3ccc(NC4=NC(C)(C)CO4)cc23)ccc1Oc1ccn2ncnc2c1	–	human, plasma	oral, 300 mg, day 1, single dose alone	–	Tmax, median	2 h
CSc1ccc(CNS(=O)(=O)c2c(C)oc(C)c2C(=O)O)cc1C	colloidal aggregate formation, dynamic light scattering	50 mM potassium phosphate buffer	200 µM, pH 7.0, 1% DMSO	higher = more aggregation	DLS scattered light intensity	530000 counts/s
COc1ccnc(C(=O)N[C@H]2COC(=O)[C@H](Cc3ccccc3)[C@@H](O)[C@H](C)OC2=O)c1O	soil adsorption	tested soils	geometric mean	–	Freundlich coefficient KF	16.6 mL/g
CCCCC1=NC2(CCCC2)C(=O)N1Cc1ccc(-c2ccccc2S(=O)(=O)Nc2noc(C)c2C)c(COCC)c1	–	healthy adult volunteers, plasma	oral, 50 mg, 14 days repeated dosing, fasted, crushed tablet	–	Cmax	1.51 µg/mL
CC[C@H](C)[C@H](NC(=O)[C@H](Cc1ccccc1)NC(=O)[C@H](CCC(=O)O)NC(=O)[C@H](CCCCNC(=O)COCCOCCNC(=O)COCCOCCNC(=O)CC[C@H](NC(=O)CCCCCCCCCCCCCCCCC(=O)O)C(=O)O)NC(=O)[C@H](C)NC(=O)[C@H](C)NC(=O)[C@H](CCC(N)=O)NC(=O)CNC(=O)[C@H](CCC(=O)O)NC(=O)[C@H](CC(C)C)NC(=O)[C@H](Cc1ccc(O)cc1)NC(=O)[C@H](CO)NC(=O)[C@H](CO)NC(=O)[C@@H](NC(=O)[C@H](CC(=O)O)NC(=O)[C@H](CO)NC(=O)[C@@H](NC(=O)[C@H](Cc1ccccc1)NC(=O)[C@@H](NC(=O)CNC(=O)[C@H](CCC(=O)O)NC(=O)C(C)(C)NC(=O)[C@@H](N)Cc1cnc[nH]1)[C@@H](C)O)[C@@H](C)O)C(C)C)C(=O)N[C@@H](C)C(=O)N[C@@H](Cc1c[nH]c2ccccc12)C(=O)N[C@@H](CC(C)C)C(=O)N[C@H](C(=O)N[C@@H](CCCNC(=N)N)C(=O)NCC(=O)N[C@@H](CCCNC(=N)N)C(=O)NCC(=O)O)C(C)C	QT interval corrected for heart rate, 12-lead Holter ECG	healthy human subjects	subcutaneous, 1.5 mg once weekly, 18 h post-dose, steady state	relative to: placebo, time-matched baseline	placebo-subtracted change in QTcI	-6.1 ms
Nc1ccn([C@@H]2O[C@H](CO)[C@@H](O)C2(F)F)c(=O)n1	measured: dFdU	human, plasma	intravenous, 1000 mg/m^2, with: after paricalcitol	–	Tmax, mean	1.2 h
O=S(=O)(NC1(CC(F)(F)F)CC1)c1cccc(Cl)c1O	colloidal aggregate formation, dynamic light scattering	50 mM potassium phosphate buffer	200 µM, pH 7.0, 1% DMSO	higher = more aggregation	DLS scattered light intensity	621000 counts/s
C=CCN1CC(=O)N2[C@@H](Cc3ccc(O)cc3F)C(=O)N(Cc3cccc(N4CC(N5CCN(CC)CC5)C4)n3)C[C@@H]2N1C(=O)NCc1ccccc1	–	advanced solid tumour patients	oral, 120 mg twice daily, grade ≥3, dose-escalation	–	treatment-related vomiting	0%
CC(=O)NC[C@H]1CN(c2ccc(N3CCOCC3)c(F)c2)C(=O)O1	–	human whole blood	concentration not given, 8 h, 4 °C	–	deviation from nominal concentration	1%
Cc1ccc(Sc2ccccc2N2CCNCC2)c(C)c1	–	healthy adult men	oral, 40 mg single dose, treatment-emergent adverse events	–	pyrexia incidence	16.7%
O=S(=O)(NCc1ccnn1C1CC1(F)F)c1cccc(Cl)c1O (stereo not shown)	colloidal aggregate formation, dynamic light scattering	50 mM potassium phosphate buffer	200 µM, pH 7.0, 1% DMSO	higher = more aggregation	DLS scattered light intensity	388000 counts/s
COC(=O)C(Cc1cccc(OC)c1I)NC(=O)CNCc1ccccc1 (stereo not shown)	–	beagle dog	1 µM	–	half-life	> 3 h
